Assay results of several laboratories.
A part holds a random share of what one study measured.
Sequence of UniProt Q86UX6 (whole entry, looked up): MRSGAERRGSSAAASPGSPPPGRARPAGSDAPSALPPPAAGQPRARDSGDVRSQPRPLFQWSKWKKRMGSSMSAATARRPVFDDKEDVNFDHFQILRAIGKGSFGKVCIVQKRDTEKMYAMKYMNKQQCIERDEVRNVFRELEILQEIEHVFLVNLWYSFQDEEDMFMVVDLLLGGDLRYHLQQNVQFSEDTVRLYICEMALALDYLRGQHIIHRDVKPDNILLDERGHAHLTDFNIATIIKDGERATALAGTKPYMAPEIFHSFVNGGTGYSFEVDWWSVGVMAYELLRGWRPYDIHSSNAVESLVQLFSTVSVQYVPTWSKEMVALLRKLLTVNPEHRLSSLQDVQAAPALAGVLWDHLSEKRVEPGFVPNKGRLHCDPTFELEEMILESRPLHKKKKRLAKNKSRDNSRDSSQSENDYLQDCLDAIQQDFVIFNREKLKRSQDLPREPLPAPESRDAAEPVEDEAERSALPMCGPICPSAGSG
Sequence of UniProt O94806 (whole entry, looked up): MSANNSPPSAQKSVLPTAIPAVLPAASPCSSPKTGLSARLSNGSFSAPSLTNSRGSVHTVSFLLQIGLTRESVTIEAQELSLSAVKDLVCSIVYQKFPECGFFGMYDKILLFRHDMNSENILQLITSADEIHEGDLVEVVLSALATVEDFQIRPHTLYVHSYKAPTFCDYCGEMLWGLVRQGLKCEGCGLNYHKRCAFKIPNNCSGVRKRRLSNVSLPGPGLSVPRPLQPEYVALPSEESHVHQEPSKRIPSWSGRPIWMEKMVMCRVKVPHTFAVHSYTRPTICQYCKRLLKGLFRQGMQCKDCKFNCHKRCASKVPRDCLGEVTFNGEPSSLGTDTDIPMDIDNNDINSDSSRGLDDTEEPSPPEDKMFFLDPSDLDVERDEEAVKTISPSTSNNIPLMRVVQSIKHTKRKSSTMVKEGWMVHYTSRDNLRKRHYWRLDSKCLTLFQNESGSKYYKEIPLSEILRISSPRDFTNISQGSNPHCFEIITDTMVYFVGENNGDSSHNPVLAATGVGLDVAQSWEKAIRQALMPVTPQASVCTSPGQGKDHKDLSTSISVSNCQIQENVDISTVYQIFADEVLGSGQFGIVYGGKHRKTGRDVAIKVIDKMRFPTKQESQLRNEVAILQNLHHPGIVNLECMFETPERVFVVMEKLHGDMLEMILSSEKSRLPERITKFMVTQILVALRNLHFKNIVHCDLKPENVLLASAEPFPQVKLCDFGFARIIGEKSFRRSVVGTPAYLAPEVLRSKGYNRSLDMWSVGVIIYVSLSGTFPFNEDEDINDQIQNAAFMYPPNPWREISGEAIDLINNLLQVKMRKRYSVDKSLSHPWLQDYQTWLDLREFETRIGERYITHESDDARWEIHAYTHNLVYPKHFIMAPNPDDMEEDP
Sequence of UniProt Q6P3R8 (whole entry, looked up): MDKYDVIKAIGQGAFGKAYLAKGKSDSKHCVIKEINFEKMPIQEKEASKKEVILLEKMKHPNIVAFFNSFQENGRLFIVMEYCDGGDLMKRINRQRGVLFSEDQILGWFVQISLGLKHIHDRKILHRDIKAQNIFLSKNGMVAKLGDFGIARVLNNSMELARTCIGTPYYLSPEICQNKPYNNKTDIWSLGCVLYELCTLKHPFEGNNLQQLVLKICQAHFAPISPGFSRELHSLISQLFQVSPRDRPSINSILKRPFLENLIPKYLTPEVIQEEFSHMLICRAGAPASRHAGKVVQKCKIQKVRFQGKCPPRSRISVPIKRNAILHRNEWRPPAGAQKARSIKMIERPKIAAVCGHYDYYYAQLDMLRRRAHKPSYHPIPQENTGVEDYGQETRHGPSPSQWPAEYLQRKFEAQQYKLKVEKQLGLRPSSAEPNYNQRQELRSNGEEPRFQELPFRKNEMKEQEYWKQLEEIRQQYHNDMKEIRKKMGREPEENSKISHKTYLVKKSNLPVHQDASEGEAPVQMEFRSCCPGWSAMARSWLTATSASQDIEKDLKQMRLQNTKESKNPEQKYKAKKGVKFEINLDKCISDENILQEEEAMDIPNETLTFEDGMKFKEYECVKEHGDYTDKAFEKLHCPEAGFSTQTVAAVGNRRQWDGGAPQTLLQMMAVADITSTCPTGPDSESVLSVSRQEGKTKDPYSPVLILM
Sequence of UniProt P48730 (whole entry, looked up): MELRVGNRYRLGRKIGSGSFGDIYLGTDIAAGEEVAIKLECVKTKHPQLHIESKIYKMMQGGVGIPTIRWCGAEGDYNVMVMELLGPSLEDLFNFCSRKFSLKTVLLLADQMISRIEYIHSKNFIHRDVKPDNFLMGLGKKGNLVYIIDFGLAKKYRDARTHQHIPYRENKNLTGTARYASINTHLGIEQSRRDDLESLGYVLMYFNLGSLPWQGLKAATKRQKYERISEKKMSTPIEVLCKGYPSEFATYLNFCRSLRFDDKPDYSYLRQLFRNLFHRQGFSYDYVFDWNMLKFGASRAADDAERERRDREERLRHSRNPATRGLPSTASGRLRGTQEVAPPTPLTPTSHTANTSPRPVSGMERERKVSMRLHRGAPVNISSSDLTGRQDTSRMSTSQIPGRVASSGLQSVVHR
Sequence of UniProt Q52WX2 (whole entry, looked up): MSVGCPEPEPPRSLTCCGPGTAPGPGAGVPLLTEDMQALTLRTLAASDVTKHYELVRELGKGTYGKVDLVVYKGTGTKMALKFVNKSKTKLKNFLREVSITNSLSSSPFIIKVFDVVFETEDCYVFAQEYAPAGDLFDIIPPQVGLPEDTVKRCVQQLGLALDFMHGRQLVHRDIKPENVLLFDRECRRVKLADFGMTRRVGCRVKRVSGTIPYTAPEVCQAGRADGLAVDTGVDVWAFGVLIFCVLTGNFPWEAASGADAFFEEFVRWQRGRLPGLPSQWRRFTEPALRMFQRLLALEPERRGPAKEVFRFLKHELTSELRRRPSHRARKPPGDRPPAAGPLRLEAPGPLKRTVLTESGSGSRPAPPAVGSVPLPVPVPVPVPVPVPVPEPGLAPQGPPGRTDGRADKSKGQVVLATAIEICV
Sequence of UniProt O95382 (whole entry, looked up): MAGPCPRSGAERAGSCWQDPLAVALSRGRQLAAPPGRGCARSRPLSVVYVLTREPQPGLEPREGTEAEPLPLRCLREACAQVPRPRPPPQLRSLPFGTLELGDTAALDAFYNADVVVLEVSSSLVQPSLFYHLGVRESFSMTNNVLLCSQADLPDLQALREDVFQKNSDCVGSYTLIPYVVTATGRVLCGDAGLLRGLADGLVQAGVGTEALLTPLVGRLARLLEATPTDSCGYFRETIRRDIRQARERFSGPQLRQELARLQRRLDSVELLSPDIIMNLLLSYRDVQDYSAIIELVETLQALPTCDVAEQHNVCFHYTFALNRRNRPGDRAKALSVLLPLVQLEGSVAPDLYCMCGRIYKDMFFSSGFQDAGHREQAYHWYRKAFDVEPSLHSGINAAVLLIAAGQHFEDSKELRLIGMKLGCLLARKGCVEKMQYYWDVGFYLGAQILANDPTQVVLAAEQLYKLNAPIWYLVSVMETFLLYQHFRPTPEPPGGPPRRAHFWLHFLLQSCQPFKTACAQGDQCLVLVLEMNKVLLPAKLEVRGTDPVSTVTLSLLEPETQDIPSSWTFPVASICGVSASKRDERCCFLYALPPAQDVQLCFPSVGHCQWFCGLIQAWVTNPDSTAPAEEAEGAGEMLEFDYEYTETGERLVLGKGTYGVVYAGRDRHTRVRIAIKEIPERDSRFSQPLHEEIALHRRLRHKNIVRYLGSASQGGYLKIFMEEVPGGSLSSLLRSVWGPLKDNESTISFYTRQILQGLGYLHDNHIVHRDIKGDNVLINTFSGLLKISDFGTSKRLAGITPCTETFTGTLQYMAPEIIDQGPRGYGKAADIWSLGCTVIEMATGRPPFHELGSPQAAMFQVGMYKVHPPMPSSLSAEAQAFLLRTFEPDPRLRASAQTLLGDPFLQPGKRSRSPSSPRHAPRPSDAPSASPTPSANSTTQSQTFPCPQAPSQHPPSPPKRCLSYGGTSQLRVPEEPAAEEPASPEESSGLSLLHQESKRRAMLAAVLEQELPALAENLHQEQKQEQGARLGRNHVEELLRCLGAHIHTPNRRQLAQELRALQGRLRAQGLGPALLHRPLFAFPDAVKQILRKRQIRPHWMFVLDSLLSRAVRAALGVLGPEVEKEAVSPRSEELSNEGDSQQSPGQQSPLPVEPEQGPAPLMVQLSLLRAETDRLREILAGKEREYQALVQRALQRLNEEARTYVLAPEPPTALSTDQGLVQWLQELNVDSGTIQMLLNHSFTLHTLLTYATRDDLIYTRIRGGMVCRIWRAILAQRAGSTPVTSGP
Sequence of UniProt Q9UQB9 (whole entry, looked up): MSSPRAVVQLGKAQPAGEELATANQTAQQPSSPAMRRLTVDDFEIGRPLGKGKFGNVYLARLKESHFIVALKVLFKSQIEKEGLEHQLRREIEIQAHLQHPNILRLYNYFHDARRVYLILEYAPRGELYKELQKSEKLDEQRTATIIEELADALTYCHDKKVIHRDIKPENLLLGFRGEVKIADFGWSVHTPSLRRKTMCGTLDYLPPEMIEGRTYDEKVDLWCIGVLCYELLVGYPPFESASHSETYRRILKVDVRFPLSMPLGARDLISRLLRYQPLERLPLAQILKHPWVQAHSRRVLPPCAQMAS

Series 1 — tested at: 1 µM
Compound: NS(=O)(=O)c1cc(NC(=O)Cc2ccccc2)ccc1Oc1cccc(Cl)c1
| target | observed | method | remaining binding [%] |
| --- | --- | --- | --- |
| SRC (Homo sapiens, UniProt P12931) | cell-free assay | competition with immobilised ligand | 90 |
| MAP3K15 (Homo sapiens, UniProt Q6ZN16) | cell-free assay | competition with immobilised ligand | 100 |
| BMPR1B (Homo sapiens, UniProt O00238) | cell-free assay | competition with immobilised ligand | 94 |
| MELK (Homo sapiens, UniProt Q14680) | cell-free assay | competition with immobilised ligand | 59 |
| Aurora kinase C (AURKC, Homo sapiens, UniProt Q9UQB9) | cell-free assay | competition with immobilised ligand | 100 |
| Ribosomal protein S6 kinase alpha-4, N-terminal kinase domain (RPS6KA4, Homo sapiens, UniProt O75676) | cell-free assay | competition with immobilised ligand | 100 |
| CDK17 (Homo sapiens, UniProt Q00537) | cell-free assay | competition with immobilised ligand | 88 |
| STK16 (Homo sapiens, UniProt O75716) | cell-free assay | competition with immobilised ligand | 95 |
| NEK5 (Homo sapiens, UniProt Q6P3R8) | cell-free assay | competition with immobilised ligand | 77 |
| CDC42BPB (Homo sapiens, UniProt Q9Y5S2) | cell-free assay | competition with immobilised ligand | 100 |
| MAP3K6 (Homo sapiens, UniProt O95382) | cell-free assay | competition with immobilised ligand | 72 |
| MET (Homo sapiens, UniProt P08581, M1250T) | cell-free assay | competition with immobilised ligand | 99 |
| ERN1 (Homo sapiens, UniProt O75460) | cell-free assay | competition with immobilised ligand | 73 |
| MAP3K4 (Homo sapiens, UniProt Q9Y6R4) | cell-free assay | competition with immobilised ligand | 100 |
| PRKD3 (Homo sapiens, UniProt O94806) | cell-free assay | competition with immobilised ligand | 100 |
| MYLK2 (Homo sapiens, UniProt Q9H1R3) | cell-free assay | competition with immobilised ligand | 81 |
| STK32C (Homo sapiens, UniProt Q86UX6) | cell-free assay | competition with immobilised ligand | 100 |
| MAP3K1 (Homo sapiens, UniProt Q13233) | cell-free assay | competition with immobilised ligand | 66 |
| SBK1 (Homo sapiens, UniProt Q52WX2) | cell-free assay | competition with immobilised ligand | 100 |
| DYRK1B (Homo sapiens, UniProt Q9Y463) | cell-free assay | competition with immobilised ligand | 100 |
| ACVR1B (Homo sapiens, UniProt P36896) | cell-free assay | competition with immobilised ligand | 98 |
| WNK3 (Homo sapiens, UniProt Q9BYP7) | cell-free assay | competition with immobilised ligand | 78 |
| CSNK1D (Homo sapiens, UniProt P48730) | cell-free assay | competition with immobilised ligand | 93 |
| AAK1 (Homo sapiens, UniProt Q2M2I8) | binding |  | 88 |
| Receptor-type tyrosine-protein kinase FLT3, autoinhibited (FLT3, Homo sapiens, UniProt P36888) | cell-free assay | competition with immobilised ligand | 90 |

Series 2 — observed: enzyme activity; mode: inhibitor; tested at: 10 µM
Target: Calcium/calmodulin-dependent protein kinase type II subunit alpha (CAMK2A, Homo sapiens, UniProt Q9UQM7)
Sequence of UniProt Q9UQM7 (whole entry, looked up): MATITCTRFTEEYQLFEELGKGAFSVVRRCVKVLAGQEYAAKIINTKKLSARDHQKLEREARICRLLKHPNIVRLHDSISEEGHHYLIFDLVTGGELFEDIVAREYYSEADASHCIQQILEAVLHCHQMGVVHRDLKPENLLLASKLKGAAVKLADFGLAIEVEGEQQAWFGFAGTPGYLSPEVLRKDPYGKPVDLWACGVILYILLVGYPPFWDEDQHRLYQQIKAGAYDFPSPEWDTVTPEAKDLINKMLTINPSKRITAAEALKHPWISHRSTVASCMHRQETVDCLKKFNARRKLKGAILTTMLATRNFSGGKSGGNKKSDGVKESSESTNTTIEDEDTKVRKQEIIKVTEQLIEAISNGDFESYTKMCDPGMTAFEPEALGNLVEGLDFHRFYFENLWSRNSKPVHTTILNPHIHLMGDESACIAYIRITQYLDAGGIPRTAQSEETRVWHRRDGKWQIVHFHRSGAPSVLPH
| SMILES | inhibition |
| --- | --- |
| CN[C@H]1C(=O)N[C@@H]2Cc3ccc(cc3)Oc3cc4cc(c3O[C@@H]3O[C@H](C(=O)O)[C@@H](O)[C@H](O)[C@H]3NC(=O)CCCCCCCCC(C)C)Oc3ccc(cc3Cl)[C@@H](O)[C@@H]3NC(=O)[C@H](NC(=O)[C@@H]4NC(=O)[C@@H](NC2=O)c2cc(cc(O)c2Cl)Oc2cc1ccc2O)c1ccc(O)c(c1)-c1c(O[C@H]2O[C@H](CO)[C@@H](O)[C@H](O)[C@@H]2O)cc(O)cc1[C@@H](C(=O)NCCCN(C)C)NC3=O | 0% |
| CCOc1ccc(NC(C)=O)cc1 | -6% |
| CO[C@@]1(NC(=O)CSC(F)F)C(=O)N2C(C(=O)O)=C(CSc3nnnn3CCO)CO[C@@H]21 | -8% |
| CC(=O)OC[C@H]1O[C@@H](OC(C)=O)[C@H](OC(C)=O)[C@@H](OC(C)=O)[C@@H]1OC(C)=O | -8% |
| O=c1c(O)c(-c2ccc(O)c(O)c2)oc2cc(O)ccc12 | 68% |
| CCNC(=O)CCC/C=C\C[C@@H]1[C@@H](/C=C/[C@@H](O)CCc2ccccc2)[C@H](O)C[C@@H]1O | -13% |
| CCN(CC)C(=O)N1CCN(C)CC1 | -16% |
| COc1cc(OC)cc(C(=O)O)c1 | -5% |
| O=C(O)c1cc(=O)cc(C(=O)O)o1 | 0% |

Series 3 — tested at: 50 µM
Target: Bromodomain-containing protein 4, BD1 (BRD4, Homo sapiens, UniProt O60885)
| SMILES | inhibition |
| --- | --- |
| CCS(=O)(=O)c1cccc(-c2cc(C(=O)NC3CCN(C)CC3)c(C)c3[nH]c4ncc(C)cc4c23)c1 | 17.8% |
| CNC(=O)c1ccccc1Sc1ccc2c(/C=C/c3ccccn3)n[nH]c2c1 | -6.78% |
| C=CC(=O)Nc1cc2c(Nc3ccc(F)c(Cl)c3)ncnc2cc1OCCCN1CCOCC1 | -13.8% |
| Cc1[nH]c(/C=C2\C(=O)Nc3ccccc32)c(C)c1CCC(=O)O | 18.6% |
| CC[C@H](CO)Nc1nc(NCc2ccccc2)c2ncn(C(C)C)c2n1 | 13.6% |
| CNC(=O)c1cc(Oc2ccc(NC(=O)Nc3ccc(Cl)c(C(F)(F)F)c3)cc2)ccn1 | 8.6% |
| Cc1ccc(NC(=O)c2ccc(CN3CCN(C)CC3)cc2)cc1Nc1nc(-c2cccnc2)cs1 | 52.8% |
| Cc1ccc(F)c(NC(=O)Nc2ccc(-c3cccc4[nH]nc(N)c34)cc2)c1 | 58.9% |
| CN1CCC(COc2cnc(-c3cccc(Cn4nc(-c5cccc(C#N)c5)ccc4=O)c3)nc2)CC1 | 21.6% |
| COc1cc2nccc(Oc3ccc(NC(=O)Nc4cc(C)on4)c(Cl)c3)c2cc1OC | 32.6% |
| COc1cc(N2CCC(N3CCN(C)CC3)CC2)ccc1Nc1ncnc(Nc2ccccc2S(=O)(=O)C(C)C)n1 | 49.1% |
| C[C@@H](Oc1ccc2[nH]nc(/C=C/c3cnn(CCO)c3)c2c1)c1c(Cl)cncc1Cl | 26% |

Series 4 — method: phase 2a trial; species: idiopathic pulmonary fibrosis patients
SMILES: CC(C)n1cnc(-c2ccc(F)cc2)c1-c1ncc(C(=O)Nc2ccc(N3CCN(C)CC3)cc2)[nH]1
| dose | setting | patients with hypophosphataemia [%] |
| --- | --- | --- |
| all arms pooled | grade 2 emergent event | 0 |
| 30 mg once daily | grade 1 emergent event | 0 |
| 30 mg once daily | grade 3 emergent event | 0 |
| 30 mg once daily | grade 4 emergent event | 0 |
| all arms pooled | grade 3 emergent event | 0 |
| 60 mg once daily | grade 5 emergent event | 0 |
| all arms pooled | grade 4 emergent event | 0 |

A few entries again (series 3):
| SMILES | inhibition |
| --- | --- |
| CNC(=O)c1ccccc1Sc1ccc2c(/C=C/c3ccccn3)n[nH]c2c1 | -6.78% |
| C=CC(=O)Nc1cc2c(Nc3ccc(F)c(Cl)c3)ncnc2cc1OCCCN1CCOCC1 | -13.8% |
| Cc1[nH]c(/C=C2\C(=O)Nc3ccccc32)c(C)c1CCC(=O)O | 18.6% |
| CC[C@H](CO)Nc1nc(NCc2ccccc2)c2ncn(C(C)C)c2n1 | 13.6% |
| CNC(=O)c1cc(Oc2ccc(NC(=O)Nc3ccc(Cl)c(C(F)(F)F)c3)cc2)ccn1 | 8.6% |
| Cc1ccc(NC(=O)c2ccc(CN3CCN(C)CC3)cc2)cc1Nc1nc(-c2cccnc2)cs1 | 52.8% |
| Cc1ccc(F)c(NC(=O)Nc2ccc(-c3cccc4[nH]nc(N)c34)cc2)c1 | 58.9% |
